Experimental data pooled from the literature.
Parts stem from different laboratories: compare values within a part only.

Study 1 — technique: protein binding microarray; molecule type: double-stranded DNA, one strand shown; sample: in vitro; tested at: not given; relative to: not given; direction: higher = stronger binding
Target: Histone acetyltransferase KAT6A, winged helix 2, GST fusion (KAT6A, Homo sapiens, UniProt Q92794, residues 85-181)
Setting: 8-mer, flanks averaged, mean of 2 arrays, mostly near background
Residues (chain): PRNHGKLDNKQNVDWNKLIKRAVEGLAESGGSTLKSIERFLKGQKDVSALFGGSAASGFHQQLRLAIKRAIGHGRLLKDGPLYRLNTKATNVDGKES
| Oligonucleotide | E-score |
| --- | --- |
| GTCGACAA | -0.045 |
| CAGCTTGG | 0.147 |
| AGTGGCAG | -0.0506 |
| CAACGTAC | -0.193 |
| CGCAAAAC | 0.101 |

Study 2 — technique: protein-binding microarray; molecule type: double-stranded DNA, one strand shown; sample: in vitro; tested at: 0.8 µM; setting: whole 60-bp probe, no competitor; direction: higher = stronger binding
Target: Centromere-binding protein 1, full length, N-terminal tag (CBF1, Saccharomyces cerevisiae, UniProt P17106, residues 1-351)
Sequence of UniProt P17106 (whole entry, looked up): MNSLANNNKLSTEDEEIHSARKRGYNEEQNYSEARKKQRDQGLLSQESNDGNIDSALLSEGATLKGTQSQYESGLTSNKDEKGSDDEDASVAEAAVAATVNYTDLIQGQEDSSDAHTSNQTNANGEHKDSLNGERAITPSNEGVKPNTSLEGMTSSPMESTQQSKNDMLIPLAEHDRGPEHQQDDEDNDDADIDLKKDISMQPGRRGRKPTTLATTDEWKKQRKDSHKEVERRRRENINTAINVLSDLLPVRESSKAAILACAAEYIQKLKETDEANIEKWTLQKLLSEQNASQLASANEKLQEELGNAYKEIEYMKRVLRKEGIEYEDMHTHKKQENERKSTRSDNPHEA
| Oligonucleotide | fluorescence intensity [a.u.] |
| --- | --- |
| GAAGTAAGATAACTACATCTGATGTCATAGATTTAGGTCTTGATTCGCTTGACGCTGCTG | 514 |
| CTAAATTAGTTATGTCACGCTTACATTCACGCCTTCGTCTTGATTCGCTTGACGCTGCTG | 925 |
| CTAACAACAATTATCCACGTGCTTATCACGTTTTTCGTCTTGATTCGCTTGACGCTGCTG | 5270 |
| CCTAACTACTATAACATGGTGGTATAGCTTCGTACAGTCTTGATTCGCTTGACGCTGCTG | 530 |

Study 3 — technique: universal PBM; molecule type: double-stranded DNA, one strand shown; sample: in vitro; tested at: 600 nM; direction: higher = stronger binding
Target: Sal-like protein 4, full length isoform A (SALL4, Homo sapiens, UniProt Q9UJQ4, residues 1-1053)
Sequence of UniProt Q9UJQ4 (whole entry, looked up): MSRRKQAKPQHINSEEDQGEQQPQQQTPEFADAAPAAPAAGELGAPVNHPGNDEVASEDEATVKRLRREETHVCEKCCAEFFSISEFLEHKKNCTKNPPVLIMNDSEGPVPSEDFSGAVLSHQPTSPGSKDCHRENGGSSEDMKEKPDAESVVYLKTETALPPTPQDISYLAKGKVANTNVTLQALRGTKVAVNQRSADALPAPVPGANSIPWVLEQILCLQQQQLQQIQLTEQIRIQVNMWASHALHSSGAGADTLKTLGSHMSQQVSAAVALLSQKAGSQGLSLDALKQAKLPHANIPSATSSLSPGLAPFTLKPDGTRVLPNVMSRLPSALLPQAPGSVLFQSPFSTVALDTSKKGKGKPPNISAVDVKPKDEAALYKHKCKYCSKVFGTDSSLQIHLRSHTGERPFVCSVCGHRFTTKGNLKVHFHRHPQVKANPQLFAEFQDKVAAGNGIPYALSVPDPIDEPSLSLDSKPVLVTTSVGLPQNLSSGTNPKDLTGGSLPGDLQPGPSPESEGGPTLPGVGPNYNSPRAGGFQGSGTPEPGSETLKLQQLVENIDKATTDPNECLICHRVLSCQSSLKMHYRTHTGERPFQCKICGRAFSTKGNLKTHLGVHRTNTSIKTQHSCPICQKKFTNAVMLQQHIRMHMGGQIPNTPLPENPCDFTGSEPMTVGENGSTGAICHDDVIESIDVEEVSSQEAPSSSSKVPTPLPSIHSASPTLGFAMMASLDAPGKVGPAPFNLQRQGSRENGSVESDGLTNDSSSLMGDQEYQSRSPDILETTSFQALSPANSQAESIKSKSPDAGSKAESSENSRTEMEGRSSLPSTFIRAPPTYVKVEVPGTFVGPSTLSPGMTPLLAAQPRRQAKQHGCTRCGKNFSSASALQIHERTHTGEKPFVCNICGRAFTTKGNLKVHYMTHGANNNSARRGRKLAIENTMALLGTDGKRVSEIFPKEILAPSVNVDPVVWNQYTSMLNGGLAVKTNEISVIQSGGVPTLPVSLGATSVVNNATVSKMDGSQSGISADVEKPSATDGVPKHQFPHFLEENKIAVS
Setting: 8-mer, flanks averaged, mean of replicates
| Oligonucleotide | E-score |
| --- | --- |
| CACAGTGA | -0.0388 |
| GTCCCTCA | -0.115 |
| CGACGCCG | -0.405 |
| AGCCCAAA | 0.0415 |
| ACCCGGAT | -0.316 |

Other studies, line by line
| Molecule | target | assay | system | setting | scale | measurement | value |
| --- | --- | --- | --- | --- | --- | --- | --- |
| PhoQ, residues 284 288 289 292 302 303 NSMLDC | PhoP, residues 12 14 15 18 19 DLLYY (Escherichia coli, UniProt P23836) | Sort-seq, item: YFP reporter | E. coli | PhoQ-PhoP variant library, added: 10 µM Mg2+ | relative to: high Mg2+ state, higher = stronger signaling | fold induction | 1.03 |
